Experimental data pooled from the literature.
Every numbered part comes from another study and shows a few of its results, in no order. Positions count from the first letter of the parent shown.

Sample 1 — technique: RNA Bind-n-Seq; form: RNA; medium: in vitro; concentration: 365 nM; reference: no-protein control; direction: higher = stronger binding
Target: RNA binding protein fox-1 homolog 2, RRM domain, GST-SBP tag (RBFOX2, Homo sapiens, UniProt O43251-10, residues 100-194)
Notes: natural RNA segment, single round, ends assumed
Shared flanks, not repeated: GGGAGUUCUACAGUCCGACGAUC … UGGAAUUCUCGGGUGCCAA
Strand | RBNS enrichment (R)
GCCUGUUUUCUGUUUCAAACAUGAUAGUUGAUAUGAGACUGAAACCCCUGGGUUGUGGAGGGAAAUUGGCUCAGAGAUGGACAACCUGGCAACUGUGAGUCCCUGCUUCC | 0.481
AGUGUAGGCCAGCCAUCAUCACAAGGGCCAAGCCCCAAACCCUGUGCUCAAACUGUCAUGGCACCACGGGCAAUGCGGUCCUCCCUACCGUUCUCCUUCCCCUUCUCUGC | 0.716
CAGUAGUUGGAAACAUCUCAAUUACAGUGUAACACCUUAGAGCUAAAAACAUUUGUUCAACACAAACUAGAAUCACACCUUCUCACUAGAUAUCACCAAGGGAAUGUGGU | 0.404
AUGAUUCAAACAUCUACCCCUGUUCUGAAUCAGGAUGUUGACACUUCUUGGUUAUUUUCAGAUGAACAGUAACUGCUACACUCUUGAAAGCACUUAAAAGUGCAAGCAUG | 2.17
AGGCGACGGUGGCCCCAGGAUGGGGAGCAGGCCUCUGCUGCCUGUUCCCUCUGCCCUUUCUCUGGCUUCCUCUGCUCCUCCUCAUCCCUGCAGGCAAAGGAAACCCUCUG | 0.382
UCUUUUGUAACUUUACAGAGGAUCAAAGCCGUUCUUUUCCAUUUCUUGGCCAGGCCUGUACUCUCCCGCAUAGAGGCUUUCCUUUCCCUCCUAUUUGCGUCACGCCUUCC | 0.59
UUUUACAUUCUUCUGCUGCAUCCAUACAAUGCUCCACUGCUGUUGAGUGUCCUUUAACUGUGGACCAAAGGCAACCCCUGCAGUGUUUAUAAAACAAUUUUAAGACCAUU | 0.569
GUUGUCAUUUGAAACUCUUCACAUAAAAUUUUCUAAUAUUCAUUUGGAAAACCUCUCCACUGGAGAGGUUUCAUCUCUGAGAGGUUUUGUAAUAAUAGUGUAAGUUCAGU | 0.458

Sample 2 — technique: aptamer microarray, sandwich; form: DNA with 2'F-ANA; medium: in vitro; concentration: 200 nM; together with: Cy3 exosite-II aptamer, 400 nM; direction: higher = stronger binding; strand: GGTTGGTGTGGTTGG
Target: Prothrombin, mature alpha-thrombin (F2, Homo sapiens, UniProt P00734)
Notes: whole 15-mer aptamer, many near background
Modification | mean fluorescence intensity [a.u.]
2'F-ANA at 2 5 6 7 9 12 13 14 | 67.3
2'F-ANA at 3 4 6 10 13 14 15 | 182
2'F-ANA at 3 6 9 10 11 12 13 | 496
2'F-ANA at 1 2 3 6 7 8 11 15 | 192
2'F-ANA at 1 7 8 10 11 12 | 71.3
2'F-ANA at 1 2 4 7 8 9 10 11 15 | 60.5
2'F-ANA at 2 3 7 9 11 12 13 14 | 399
2'F-ANA at 1 3 7 11 12 | 470

Mixed results
P1: PafA, mature enzyme, eGFP fusion (Elizabethkingia meningoseptica, UniProt Q9KJX5); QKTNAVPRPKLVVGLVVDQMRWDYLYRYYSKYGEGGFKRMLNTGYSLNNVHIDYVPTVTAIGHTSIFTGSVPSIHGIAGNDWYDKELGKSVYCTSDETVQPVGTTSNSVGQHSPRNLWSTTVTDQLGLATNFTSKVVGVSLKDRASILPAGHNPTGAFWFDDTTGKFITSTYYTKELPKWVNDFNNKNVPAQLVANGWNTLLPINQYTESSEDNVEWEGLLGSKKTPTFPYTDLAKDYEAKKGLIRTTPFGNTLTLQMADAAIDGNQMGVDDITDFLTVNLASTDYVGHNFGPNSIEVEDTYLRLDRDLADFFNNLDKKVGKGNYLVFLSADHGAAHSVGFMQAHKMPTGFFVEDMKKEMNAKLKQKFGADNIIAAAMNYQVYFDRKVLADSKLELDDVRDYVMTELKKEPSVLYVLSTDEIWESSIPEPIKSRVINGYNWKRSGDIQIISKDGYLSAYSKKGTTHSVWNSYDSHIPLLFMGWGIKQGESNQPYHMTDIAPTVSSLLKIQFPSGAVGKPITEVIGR
Substance | target or system | assay | test system | setting | how to read | quantity | result
Putative uncharacterized protein FLJ42384 (Homo sapiens, UniProt Q6ZVL8) | ANKRD13B (Homo sapiens, UniProt Q86YJ7) | cross-linking MS | cells | together with: BSPNO |  | cross-linked residues | M1 to I2
P1 F276V | tungstate, free oxyanion | microfluidic competitive inhibition | in vitro, cell-free expressed | not given, derived from inhibition constants, unchanged parent 2230 nM | lower = stronger binding | oxyanion analog dissociation constant | 1740 nM

For quick reference, copied from above (sample 2):
Modification | mean fluorescence intensity [a.u.]
2'F-ANA at 1 2 3 6 7 8 11 15 | 192
2'F-ANA at 3 4 6 10 13 14 15 | 182
